Measurements from different studies.
Lines come from different studies, so protocols differ.
U2AF2: U2AF2 148-342 (Homo sapiens, UniProt P26368)
Chain of UniProt P26368 (whole entry, looked up): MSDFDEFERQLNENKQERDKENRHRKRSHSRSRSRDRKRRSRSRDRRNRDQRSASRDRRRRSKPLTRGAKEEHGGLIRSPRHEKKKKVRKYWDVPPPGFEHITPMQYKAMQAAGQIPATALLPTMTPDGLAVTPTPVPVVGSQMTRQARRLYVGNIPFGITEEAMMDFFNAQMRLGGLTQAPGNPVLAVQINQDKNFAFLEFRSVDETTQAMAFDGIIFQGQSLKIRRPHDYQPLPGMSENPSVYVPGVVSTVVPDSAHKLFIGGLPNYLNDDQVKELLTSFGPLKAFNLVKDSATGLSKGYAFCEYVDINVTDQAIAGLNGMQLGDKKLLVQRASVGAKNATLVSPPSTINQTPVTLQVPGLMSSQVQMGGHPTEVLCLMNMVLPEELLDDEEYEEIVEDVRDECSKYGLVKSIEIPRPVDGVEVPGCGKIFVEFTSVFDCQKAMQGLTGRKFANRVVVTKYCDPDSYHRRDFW
B1: TARDBP LC domain 262-414; chain PKHNSNRQLERSGRFGGNPGGFGNQGGFGNSRGGGAGLGNNQGSNMGGGMNFGAFSINPAMMAAAQAALQSSWGMMGMLASQQNQSGPSGNNQNQGNMQREPNQAFGSGNNSYSGSNSGAAIGWGSASNAGSGSGFNGGFGSSMDSKSSGWGM
B2: Twinfilin-2 (human); sequence looked up; chain AHQTGIHATEELKEFFAKARAGSVRLIKVVIEDEQLVLGASQEPVGRWDQDYDRAVLPLLDAQQPCYLLYRLDSQNAQGFEWLFLAWSPDNSPVRLKMLYAATRATVKKEFGGGHIKDELFGTVKDDLSFAGYQKHLSSCAAPAPLTSAERELQQIRINEVKTEISVESKHQTLQGLAFPLQPEAQRALQQLKQKMVNYIQMKLDLERETIELVHTEPTDVAQLPSRVPRDAARYHFFLYKHTHEGDPLESVVFIYSMPGYKCSIKERMLYSSCKSRLLDSVEQDFHLEIAKKIEIGDGAELTAEFLYDEVHPKQHAFKQAFAKPKGPGGKRGHKRLIRGPGENGDDS
B3: ph-p 1397-1577 D16K/D17R (Drosophila melanogaster, UniProt P39769); chain GVGSGETNGLGTGGIVGVDAMALVDRLDEAMAEEKMQTEATPKLSESFPILGASTEVPPMSLPVQAAISAPSPLAMPLGSPLSVALPTLAPLSVVTSGAAPKSSEVNGTDRPPISSWSVKRVSNFIRELPGCQDYVDDFIQQEIDGQALLLLKEKHLVNAMGMKLGPALKIVAKVESIKEV
B4: SPOP G128D (Homo sapiens, UniProt O43791); sequence looked up; chain MSRVPSPPPPAEMSSGPVAESWCYTQIKVVKFSYMWTINNFSFCREEMGEVIKSSTFSSGANDKLKWCLRVNPKGLDEESKDYLSLYLLLVSCPKSEVRAKFKFSILNAKGEETKAMESQRAYRFVQDKDWGFKKFIRRDFLLDEANGLLPDDKLTLFCEVSVVQDSVNISGQNTMNMVKVPECRLADELGGLWENSRFTDCCLCVAGQEFQAHKAILAARSPVFSAMFEHEMEESKKNRVEINDVEPEVFKEMMCFIYTGKAPNLDKMADDLLAAADKYALERLKVMCEDALCSNLSVENAAEILILADLHSADQLKTQAVDFINYHASDVLETSGWKSMVVSHPHLVAEAYRSLASAQCPFLGPPRKRLKQS
B5: TARDBP 262-414 (Homo sapiens, UniProt Q13148); chain PKHNSNRQLERSGRFGGNPGGFGNQGGFGNSRGGGAGLGNNQGSNMGGGMNFGAFSINPAMMAAAQAALQSSWGMMGMLASQQNQSGPSGNNQNQGNMQREPNQAFGSGNNSYSGSNSGAAIGWGSASNAGSGSGFNGGFGSSMDSKSSGWGM
B6: per 1-575 (Drosophila melanogaster, UniProt P07663); sequence looked up; chain MEGGESTESTHNTKVSDSAYSNSCSNSQSQRSGSSKSRLSGSHSSGSSGYGGKPSTQASSSDMIIKRNKDKSRKKKKNKGAGQGAGQAQTLISASTSLEGRDEEKPRPSGTGCVEQQICRELQDQQHGEDHSEPQAIEQLQQEEEEDQSGSESEADRVEGVAKSEAAQSFPIPSPLSVTIVPPSMGGCGGVGHAAGLDSGLAKFDKTWEAGPGKLESMTGVGAAAAGTGQRGERVKEDSFCCVISMHDGIVLYTTPSITDVLGYPRDMWLGRSFIDFVHLKDRATFASQITTGIPIAESRGSVPKDAKSTFCVMLRRYRGLKSGGFGVIGRPVSYEPFRLGLTFREAPEEARPDNYMVSNGTNMLLVICATPIKSSYKVPDEILSQKSPKFAIRHTATGIISHVDSAAVSALGYLPQDLIGRSIMDFYHHEDLSVMKETYETVMKKGQTAGASFCSKPYRFLIQNGCYVLLETEWTSFVNPWSRKLEFVVGHHRVFQGPKQCNVFEAAPTCKLKISEEAQSRNTRIKEDIVKRLAETVSRPSDTVKQEVSRRCQALASFMETLMDEVSRADLKLE
B7: SPOP K129E (Homo sapiens, UniProt O43791); sequence looked up; chain MSRVPSPPPPAEMSSGPVAESWCYTQIKVVKFSYMWTINNFSFCREEMGEVIKSSTFSSGANDKLKWCLRVNPKGLDEESKDYLSLYLLLVSCPKSEVRAKFKFSILNAKGEETKAMESQRAYRFVQGEDWGFKKFIRRDFLLDEANGLLPDDKLTLFCEVSVVQDSVNISGQNTMNMVKVPECRLADELGGLWENSRFTDCCLCVAGQEFQAHKAILAARSPVFSAMFEHEMEESKKNRVEINDVEPEVFKEMMCFIYTGKAPNLDKMADDLLAAADKYALERLKVMCEDALCSNLSVENAAEILILADLHSADQLKTQAVDFINYHASDVLETSGWKSMVVSHPHLVAEAYRSLASAQCPFLGPPRKRLKQS
B8: PHYA 1-876 I748P (Arabidopsis thaliana, UniProt P14712); phytochromobilin thioether linked; chain GMSGSRPTQSSEGSRRSRHSARIIAQTTVDAKLHADFEESGSSFDYSTSVRVTGPVVENQPPRSDKVTTTYLHHIQKGKLIQPFGCLLALDEKTFKVIAYSENASELLTMASHAVPSVGEHPVLGIGTDIRSLFTAPSASALQKALGFGDVSLLNPILVHCRTSAKPFYAIIHRVTGSIIIDFEPVKPYEVPMTAAGALQSYKLAAKAITRLQSLPSGSMERLCDTMVQEVFELTGYDRVMAYKFHEDDHGEVVSEVTKPGLEPYLGLHYPATDIPQAARFLFMKNKVRMIVDCNAKHARVLQDEKLSFDLTLCGSTLRAPHSCHLQYMANMDSIASLVMAVVVNEEDGEGDAPDATTQPQKRKRLWGLVVCHNTTPRFVPFPLRYACEFLAQVFAIHVNKEVELDNQMVEKNILRTQTLLCDMLMRDAPLGIVSQSPNIMDLVKCDGAALLYKDKIWKLGTTPSEFHLQEIASWLCEYHMDSTGLSTDSLHDAGFPRALSLGDSVCGMAAVRISSKDMIFWFRSHTAGEVRWGGAKHDPDDRDDARRMHPRSSFKAFLEVVKTRSLPWKDYEMDAIHSLQLILRNAFKDSETTDVNTKVIYSKLNDLKIDGIQELEAVTSEMVRLIETATVPILAVDSDGLVNGWNTKIAELTGLSVDEAIGKHFLTLVEDSSVEIVKRMLENALEGTEEQNVQFEIKTHLSRADAGPISLVVNACASRDLHENVVGVCFVAHDLTGQKTVMDKFTRPEGDYKAIIQNPNPLIPPIFGTDEFGWCTEWNPAMSKLTGLKREEVIDKMLLGEVFGTQKSCCRLKNQEAFVNLGIVLNNAVTSQDPEKVSFAFFTRGGKYVECLLCVSKKLDREGVVTGVFCFLQLAS

Substance	tested on	test	system	setting	scale	quantity	result
AUUUCUUUC (ssRNA)	U2AF2	sequencing of bound RNA	RNA	motif only		Kd	310 nM
B1 (TARDBP LC domain 262-414)	itself	phase separation, light microscopy				binding	binds
CCUCUUUCU (ssRNA)	U2AF2	sequencing of bound RNA	RNA	motif only		Kd	1770 nM
IMPDH1 (Homo sapiens, UniProt P20839)	itself	negative stain electron microscopy				binding	binds
B2 (Twinfilin-2)	PP6C (human)	co-immunoprecipitation, IP-MS	CYB5R4 knockout cells	concentration not given	relative to: CYB5R4 knockout over parental	log2 fold change	1.27
B3 (ph-p 1397-1577 D16K/D17R)	itself	AUC		sedimentation velocity, self-association		binding	binds
STDKTKREEVD (AMELX residues 164-174 S11D (Homo sapiens))	itself	dynamic light scattering	peptide			binding	binds
B4 (SPOP G128D)	itself	negative-stain TEM				binding	binds
AFSSFN (DNAJB8 residues 147-152 (Homo sapiens))	itself	crystal structure	peptide	pH 7.5		binding	binds
B5 (TARDBP 262-414)	itself	cross-linking				binding	binds
B6 (per 1-575)	itself	SEC				binding	binds
B7 (SPOP K129E)	itself	negative-stain TEM				binding	binds
B8 (PHYA 1-876 I748P)	itself	SEC				binding	binds

Excerpt of the above:
Substance	tested on	test	system	setting	scale	quantity	result
B3 (ph-p 1397-1577 D16K/D17R)	itself	AUC		sedimentation velocity, self-association		binding	binds
STDKTKREEVD (AMELX residues 164-174 S11D (Homo sapiens))	itself	dynamic light scattering	peptide			binding	binds
